Results pooled from the literature.
Protocols differ between the studies behind these lines. “And” joins repeats or separate records; there may be more than shown. Numbers after ± are the reported error.

COC(=O)[C@H]1[C@@H](c2ccc(Cl)cc2)C[C@@H]2CC[C@H]1N2Cc1ccc2cc3ccccc3cc2c1
pKa (fluorometric titration; 1 µM, 10% DMSO): 5.4

N=C(N)NCCC[C@@H](NC(=O)[C@H](N)Cc1c[nH]c2ccccc12)C(=O)N[C@H](CCCCN)C(=O)N[C@H](Cc1c[nH]c2ccccc12)C(=O)N[C@H](CCCNC(=N)N)C(=O)N[C@H](CCCCN)C(=O)N[C@H](Cc1c[nH]c2ccccc12)C(=O)N[C@H](CCCNC(=N)N)C(=O)N[C@H](CCCCN)C(=O)N[C@H](Cc1c[nH]c2ccccc12)C(=O)N[C@H](CCCNC(=N)N)C(=O)N[C@H](CCCCN)C(N)=O
cystatin C level (mouse, urine; 30 mg/kg): 26.4 ng/mL

CC[C@H](C)[C@H](NC(=O)[C@H](C)NC(=O)[C@H](C)NC(=O)[C@H](CCC(N)=O)NC(=O)CNC(=O)[C@H](CC(C)C)NC(=O)[C@H](Cc1c[nH]cn1)NC(=O)[C@H](CCCCN)NC(=O)[C@H](C)NC(=O)CNC(=O)[C@H](CCCCN)NC(=O)[C@H](CCCNC(=N)N)NC(=O)[C@H](CC(C)C)NC(=O)[C@H](Cc1c[nH]c2ccccc12)NC(=O)[C@H](CCCCN)NC(=O)[C@H](CCCCN)NC(=O)[C@H](Cc1c[nH]c2ccccc12)NC(=O)CN)C(=O)N[C@@H](CCCCN)C(N)=O
chronic toxic concentration (zebrafish embryos 4 hpf, E3 medium; 24 h): 5 µM

CC(C)Oc1c(NC(=O)c2ccc(NC(=O)[C@H](CC(N)=O)NC(=O)c3ccc(/N=N/c4ccccc4)cc3)cc2)ccc(C(=O)Nc2ccc(C(=O)O)cc2)c1O
thermal half-life (absorbance; DMSO; 45 °C, PSS to ground state relaxation): 3.1 h

CSCC[C@H](N)C(=O)N[C@@H](C)C(=O)N[C@@H](CCCNC(=N)N)C(=O)N[C@@H](CCCNC(=N)N)C(=O)N[C@@H](CC(=O)O)C(=O)N[C@@H](CCCCN)C(=O)N[C@H](C(=O)N[C@@H](CC(=O)O)C(=O)N[C@@H](Cc1ccccc1)C(=O)N[C@@H](C)C(=O)N[C@@H](CCCNC(=N)N)C(=O)N[C@@H](CCCNC(=N)N)C(=O)N[C@@H](CCCNC(=N)N)C(=O)N[C@@H](CCCNC(=N)N)C(=O)NCCCCCC(=O)NCCCCC(NC(=O)CCCCCNC(=O)[C@H](CCCNC(=N)N)NC(=O)[C@H](CCCNC(=N)N)NC(=O)[C@H](CCCNC(=N)N)NC(=O)[C@H](CCCNC(=N)N)NC(=O)[C@H](C)NC(=O)[C@H](Cc1ccccc1)NC(=O)[C@H](CC(=O)O)NC(=O)[C@@H](NC(=O)[C@H](CCCCN)NC(=O)[C@H](CC(=O)O)NC(=O)[C@H](CCCNC(=N)N)NC(=O)[C@H](CCCNC(=N)N)NC(=O)[C@H](C)NC(=O)[C@@H](N)CCSC)[C@@H](C)O)C(=O)NCCCCC(NC(=O)C(CCCCNC(=O)CCCCCNC(=O)[C@H](CCCNC(=N)N)NC(=O)[C@H](CCCNC(=N)N)NC(=O)[C@H](CCCNC(=N)N)NC(=O)[C@H](CCCNC(=N)N)NC(=O)[C@H](C)NC(=O)[C@H](Cc1ccccc1)NC(=O)[C@H](CC(=O)O)NC(=O)[C@@H](NC(=O)[C@H](CCCCN)NC(=O)[C@H](CC(=O)O)NC(=O)[C@H](CCCNC(=N)N)NC(=O)[C@H](CCCNC(=N)N)NC(=O)[C@H](C)NC(=O)[C@@H](N)CCSC)[C@@H](C)O)NC(=O)CCCCCNC(=O)[C@H](CCCNC(=N)N)NC(=O)[C@H](CCCNC(=N)N)NC(=O)[C@H](CCCNC(=N)N)NC(=O)[C@H](CCCNC(=N)N)NC(=O)[C@H](C)NC(=O)[C@H](Cc1ccccc1)NC(=O)[C@H](CC(=O)O)NC(=O)[C@@H](NC(=O)[C@H](CCCCN)NC(=O)[C@H](CC(=O)O)NC(=O)[C@H](CCCNC(=N)N)NC(=O)[C@H](CCCNC(=N)N)NC(=O)[C@H](C)NC(=O)[C@@H](N)CCSC)[C@@H](C)O)C(N)=O)[C@@H](C)O (some centres unmarked)
tissue distribution (C57BL/6 mouse female, lungs; dose not given, 6 h; relative to: total): 1.1% and 1.68% and 1.8%

COc1ccc(C([O-])=CC(=O)c2ccc(C(C)(C)C)cc2)cc1.[Ru+2].c1ccc(-c2ccccn2)nc1.c1ccc(-c2ccccn2)nc1
viability (zebrafish larvae; 10 µM, 48 h, dark; relative to: normal): 0%

CC(=O)c1c(C)c2cnc(Nc3ccc(N4CCNCC4)cn3)nc2n(C2CCCC2)c1=O
red blood cell count (C57BL/6 mice, blood; 25 mg/kg, P25, dosed P10 to P24): 7.5 ± 0.2 10¹²/liter

CC(C)=CCC/C(C)=C/CCn1cc(CC(C)(P(=O)(O)O)P(=O)(O)O)nn1
biliary excretion (mouse CD-1; intravenous, 0.3 mg/kg, 8 h; relative to: dose): 0.81%

Cc1ccc(C(C)C)cc1.O=C(N=P(c1ccccc1)(c1ccccc1)c1ccccc1)c1ccccn1.[Cl-].[Cl][Ru+]
logP (LC-MS shake flask; 1-octanol/PBS): 1.45 ± 0.02

COc1cnc2cccc(N3CCc4c(cc(Cn5ccnc5)cc4-c4cn(C)nc4C(F)(F)F)C3=O)c2c1
body weight change (CD-1 mouse; intraperitoneal, 50 mg/kg once daily, day 5, dose-escalation tolerability; relative to: day 1): 8.4%

O=C1NC2(CC2)COc2ncc(F)cc2[C@H]2COCCN2c2ccn3ncc1c3n2
fibrinogen (Sprague-Dawley rats, male, blood; oral, 2.5 mg/kg/day, end of treatment, 4-week subacute toxicity): 1.87 ± 0.22 g/L

CN1Cc2cc(Cl)ccc2-n2c(nnc2C2CCN(c3cccc(F)n3)CC2)C1
AUC (Sprague-Dawley rat male, brainstem; intravenous, 0.03 mg/kg): 4.41 ng·h/mL

COc1ccc(CNc2ccc3c(c2)S(=O)(=O)C=C3)cc1
spleen weight (male C57BL/6 mice; i.p., 10 mg/kg, day 8, repeated dosing): 0.123 g

CCCCCCCCCCCCCCCC(=O)N[C@@H](CCC(=O)NCCCC[C@H](NC(=O)[C@H](CC(=O)O)NC(=O)[C@H](CO)NC(=O)[C@@H](NC(=O)[C@H](Cc1ccccc1)NC(=O)[C@@H](NC(=O)CNC(=O)[C@H](CCC(N)=O)NC(=O)[C@H](C)NC(=O)[C@@H](Cc1ccc(O)cc1)NC(C)=O)[C@@H](C)O)[C@@H](C)O)C(=O)N[C@@H](CO)C(=O)N[C@@H](CCCCN)C(=O)N[C@@H](Cc1ccc(O)cc1)C(=O)N[C@@H](CC(C)C)C(=O)N[C@@H](CC(=O)O)C(=O)N[C@@H](CCC(=O)O)C(=O)N[C@@H](CCCNC(=N)N)C(=O)N[C@@H](C)C(=O)N[C@@H](C)C(=O)N[C@@H](CCC(N)=O)C(=O)N[C@@H](CC(=O)O)C(=O)N[C@@H](Cc1ccccc1)C(=O)N[C@H](C(=O)N[C@@H](CCC(N)=O)C(=O)N[C@@H](Cc1c[nH]c2ccccc12)C(=O)N[C@@H](CC(C)C)C(=O)N[C@@H](CC(C)C)C(=O)N[C@@H](CCC(=O)O)C(=O)NCC(=O)NCC(=O)N1CCC[C@H]1C(=O)N[C@@H](CO)C(=O)N[C@@H](CO)C(=O)NCC(=O)N[C@@H](C)C(=O)N1CCC[C@H]1C(=O)N1CCC[C@H]1C(=O)N1CCC[C@H]1C(=O)N[C@@H](CO)C(N)=O)C(C)C)C(=O)O
AUC(0-last) (male cynomolgus monkey, plasma; subcutaneous, 0.0211 mg/kg): 1200 ng·h/mL

CC[C@H](C)[C@H](NC(=O)[C@H](CCCCN)NC(=O)CNC(=O)[C@H](CC(C)C)NC(=O)[C@H](Cc1ccccc1)NC(=O)[C@H](CCCCN)NC(=O)[C@H](CO)NC(=O)[C@H](Cc1ccccc1)NC(=O)[C@H](Cc1c[nH]c2ccccc12)NC(=O)[C@H](CCC(N)=O)NC(=O)[C@@H](NC(=O)[C@H](Cc1ccccc1)NC(=O)CCCCCNC(=O)CN1CCN(CC(=O)O)CCN(CC(=O)O)CCN(CC(=O)O)CC1)C(C)C)C(=O)N[C@@H](CCC(=O)O)C(=O)N1CCC[C@H]1C(=O)N[C@@H](CC(=O)O)C(=O)N[C@H](C(=O)N[C@@H](CO)C(=O)N[C@@H](CCC(N)=O)C(=O)N[C@H](C(=O)N[C@@H](CCC(N)=O)C(=O)N[C@@H](CC(=O)O)C(=O)N1CCC[C@H]1C(=O)N[C@@H](CC(N)=O)C(=O)N[C@@H](CC(=O)O)C(=O)N[C@@H](CCC(N)=O)C(=O)N[C@@H](Cc1ccc(O)cc1)C(=O)N[C@@H](CCC(=O)O)C(=O)N1CCC[C@H]1C(=O)N[C@@H](Cc1ccccc1)C(=O)O)C(C)C)C(C)C [copper-64 labelled]
SUVmean (dynamic PET; mouse both sexes, CT26 tumour, checkpoint inhibitor-treated, tumour; intravenous, 100 µCi/mouse, 330 s): 2.56 SUV

CC(C)[C@@H]1NC(=O)CNC(=O)[C@H](CC(N)=O)NC(=O)[C@H](CCCNC(=N)N)NC(=O)[C@H](Cc2ccc(O)cc2)NC(=O)[C@H](C(C)C)NC(=O)[C@@H](NC(=O)[C@@H](NC(=O)[C@H](CC(N)=O)NC(=O)[C@H](Cc2c[nH]c3ccccc23)NC(=O)[C@H](C)NC(=O)[C@H](Cc2ccccc2)NC(=O)CNC(=O)[C@H](CCCCN)NC(=O)[C@H](Cc2ccccc2)NC(=O)[C@H](Cc2ccccc2)NC(=O)[C@H](CCCCN)NC(=O)OCC2c3ccccc3-c3ccccc32)C(C)C)CSSC[C@@H](C(=O)N[C@@H](Cc2c[nH]cn2)C(=O)N[C@@H](CCCNC(=N)N)C(=O)N[C@@H](CCCNC(=N)N)C(=O)N[C@@H](C)C(=O)N[C@@H](CC(N)=O)C(N)=O)NC(=O)[C@H](C(C)C)NC(=O)[C@H](CCCNC(=N)N)NC1=O
lymphocytes (ICR mouse, blood; intramammary, 10 mg/kg, day 5, 3 d dosing): 72.9 ± 2.34%

CSCC[C@H](NC(=O)CNC(=O)[C@H](CCCCN)NC(=O)[C@H](CC(C)C)NC(=O)[C@@H]1CCCN1C(=O)[C@H](CO)NC(=O)[C@H](Cc1c[nH]cn1)NC(=O)[C@H](Cc1c[nH]c2ccccc12)NC(=O)[C@H](CCCNC(=N)N)NC(=O)[C@H](CC(C)C)NC(=O)[C@H](CCCNC(=N)N)NC(=O)[C@H](Cc1c[nH]c2ccccc12)NC(=O)[C@H](CS)NC(=O)CCCCCNC(=O)CN1CCN(CC(=O)O)CCN(CC(=O)O)CCN(CC(=O)O)CC1)C(=O)O [copper-64 labelled]
tissue uptake (male C57BL/6J mice, B16-F10 tumour, small intestine; intravenous, 1.85 MBq, 30 h): 2.71 %ID/g

Repeated from above:
CCCCCCCCCCCCCCCC(=O)N[C@@H](CCC(=O)NCCCC[C@H](NC(=O)[C@H](CC(=O)O)NC(=O)[C@H](CO)NC(=O)[C@@H](NC(=O)[C@H](Cc1ccccc1)NC(=O)[C@@H](NC(=O)CNC(=O)[C@H](CCC(N)=O)NC(=O)[C@H](C)NC(=O)[C@@H](Cc1ccc(O)cc1)NC(C)=O)[C@@H](C)O)[C@@H](C)O)C(=O)N[C@@H](CO)C(=O)N[C@@H](CCCCN)C(=O)N[C@@H](Cc1ccc(O)cc1)C(=O)N[C@@H](CC(C)C)C(=O)N[C@@H](CC(=O)O)C(=O)N[C@@H](CCC(=O)O)C(=O)N[C@@H](CCCNC(=N)N)C(=O)N[C@@H](C)C(=O)N[C@@H](C)C(=O)N[C@@H](CCC(N)=O)C(=O)N[C@@H](CC(=O)O)C(=O)N[C@@H](Cc1ccccc1)C(=O)N[C@H](C(=O)N[C@@H](CCC(N)=O)C(=O)N[C@@H](Cc1c[nH]c2ccccc12)C(=O)N[C@@H](CC(C)C)C(=O)N[C@@H](CC(C)C)C(=O)N[C@@H](CCC(=O)O)C(=O)NCC(=O)NCC(=O)N1CCC[C@H]1C(=O)N[C@@H](CO)C(=O)N[C@@H](CO)C(=O)NCC(=O)N[C@@H](C)C(=O)N1CCC[C@H]1C(=O)N1CCC[C@H]1C(=O)N1CCC[C@H]1C(=O)N[C@@H](CO)C(N)=O)C(C)C)C(=O)O
AUC(0-last) (male cynomolgus monkey, plasma; subcutaneous, 0.0211 mg/kg): 1200 ng·h/mL

CC[C@H](C)[C@H](NC(=O)[C@H](CCCCN)NC(=O)CNC(=O)[C@H](CC(C)C)NC(=O)[C@H](Cc1ccccc1)NC(=O)[C@H](CCCCN)NC(=O)[C@H](CO)NC(=O)[C@H](Cc1ccccc1)NC(=O)[C@H](Cc1c[nH]c2ccccc12)NC(=O)[C@H](CCC(N)=O)NC(=O)[C@@H](NC(=O)[C@H](Cc1ccccc1)NC(=O)CCCCCNC(=O)CN1CCN(CC(=O)O)CCN(CC(=O)O)CCN(CC(=O)O)CC1)C(C)C)C(=O)N[C@@H](CCC(=O)O)C(=O)N1CCC[C@H]1C(=O)N[C@@H](CC(=O)O)C(=O)N[C@H](C(=O)N[C@@H](CO)C(=O)N[C@@H](CCC(N)=O)C(=O)N[C@H](C(=O)N[C@@H](CCC(N)=O)C(=O)N[C@@H](CC(=O)O)C(=O)N1CCC[C@H]1C(=O)N[C@@H](CC(N)=O)C(=O)N[C@@H](CC(=O)O)C(=O)N[C@@H](CCC(N)=O)C(=O)N[C@@H](Cc1ccc(O)cc1)C(=O)N[C@@H](CCC(=O)O)C(=O)N1CCC[C@H]1C(=O)N[C@@H](Cc1ccccc1)C(=O)O)C(C)C)C(C)C [copper-64 labelled]
SUVmean (dynamic PET; mouse both sexes, CT26 tumour, checkpoint inhibitor-treated, tumour; intravenous, 100 µCi/mouse, 330 s): 2.56 SUV

CC(C)[C@@H]1NC(=O)CNC(=O)[C@H](CC(N)=O)NC(=O)[C@H](CCCNC(=N)N)NC(=O)[C@H](Cc2ccc(O)cc2)NC(=O)[C@H](C(C)C)NC(=O)[C@@H](NC(=O)[C@@H](NC(=O)[C@H](CC(N)=O)NC(=O)[C@H](Cc2c[nH]c3ccccc23)NC(=O)[C@H](C)NC(=O)[C@H](Cc2ccccc2)NC(=O)CNC(=O)[C@H](CCCCN)NC(=O)[C@H](Cc2ccccc2)NC(=O)[C@H](Cc2ccccc2)NC(=O)[C@H](CCCCN)NC(=O)OCC2c3ccccc3-c3ccccc32)C(C)C)CSSC[C@@H](C(=O)N[C@@H](Cc2c[nH]cn2)C(=O)N[C@@H](CCCNC(=N)N)C(=O)N[C@@H](CCCNC(=N)N)C(=O)N[C@@H](C)C(=O)N[C@@H](CC(N)=O)C(N)=O)NC(=O)[C@H](C(C)C)NC(=O)[C@H](CCCNC(=N)N)NC1=O
lymphocytes (ICR mouse, blood; intramammary, 10 mg/kg, day 5, 3 d dosing): 72.9 ± 2.34%
